# Measured values collected from several papers.
# Protocols differ between the studies behind these lines. Numbers after ± are the reported error.
Structure (SMILES),test,system,setting,how to read,measurement,value
COc1c2c(cc3oc(C)cc(=O)c13)O[C@H](C(C)(C)O[C@@H]1O[C@H](CO)[C@@H](O)[C@H](O)[C@H]1O)C2,,simulated intestinal fluid with pancreatin,"220.99 nmol/L, 2 h, pH 6.8, 37 °C",,remaining concentration,120 nmol/mL
Cn1cc(-c2ccnc(N)n2)c2ccccc21,LC-MS,human liver microsomes,"3 µM, 60 min, together with: ticlopidine 24 µM",reference: no inhibitor,remaining parent compound,94%
CC(=O)N([O-])CCCCCNC(=O)CCC(=O)N([O-])CCCCCNC(=O)CCC(=O)N([O-])CCCCCN.[89Zr+4],,mouse plasma,"7 d, 37 °C",,remaining intact complex,78%
CC(C)(O)[C@H]1Cc2cc3ccc(=O)oc3cc2O1,,spiked rat plasma QC samples,"0.1, 0.5, 5.0 µg/mL, 12 h, room temperature",,remaining analyte,96.8 ± 6.3%
C=CC(=O)Nc1cc(Nc2nccc(-c3cn(C)c4ccccc34)n2)c(OCC(F)(F)F)nc1NCCN(C)C,LC-MS,human liver microsomes,"3 µM, 60 min, together with: quercetin 20 µM",reference: no inhibitor,remaining parent compound,53%
CC(=O)N[C@H](C(=O)N[C@H](C(=O)N[C@@H](CCCNC(=N)N)C(=O)N[C@@H](CC(N)=O)C(=O)N[C@@H](CC(=O)O)C(=O)N[C@H](C(=O)N1CCC[C@@H]1C(=O)N1CCC[C@H]1C(=O)N[C@@H](CC(=O)O)C(=O)N[C@@H](CO)C(=O)N[C@@H](CC(C)C)C(=O)N[C@@H](CC(C)C)C(=O)N[C@H](C(=O)N[C@@H](Cc1ccccc1)C(N)=O)C(C)C)C(C)C)[C@@H](C)O)C(C)C,mass spectrometry,culture medium with HEK293T cells,"24 h, 10% FBS",reference: time zero,remaining peptide,~50%
C=CC(=O)Nc1cc(Nc2nccc(-c3cn(C)c4ccccc34)n2)c(OCC(F)(F)F)nc1N(C)CCNC,LC-MS,human liver microsomes,"3 µM, 60 min, together with: α-naphthoflavone 2 µM",reference: no inhibitor,remaining parent compound,97%
CCCC(CCC)NC(=O)c1ccc(OC)c(O)c1,,rat liver microsomes,"1.0 µM, 60 min, pH 7.4",,remaining parent compound,47.7%
CN(Cc1ccc(F)cc1)Cc1cc(=O)oc2cc(O)ccc12,,human serum,"0.5 mM, 30 min",,remaining intact compound,> 99%
C=C1C[C@@]23CC[C@H]4[C@@](C)(CCC[C@@]4(C)C(=O)O[C@@H]4O[C@H](CO)[C@@H](O)[C@H](O)[C@H]4O)[C@@H]2CC[C@]1(O[C@@H]1O[C@H](CO[C@H]2O[C@H](CO)[C@@H](O)[C@H](O)[C@H]2O)[C@@H](O)[C@H](O)[C@H]1O[C@@H]1O[C@H](CO)[C@@H](O)[C@H](O)[C@H]1O)C3,,aqueous solutions,"range over 1 to 2% w/v, 1 months, 25 °C",reference: initial,remaining concentration,> 90%
CCCC1OC2CC3C4CCC5=CC(=O)C=CC5(C)C4C(O)CC3(C)C2(C(=O)COC(=O)CN(CC)CC)O1 (stereo not drawn),,aqueous buffer,"200 µg/mL, 48 h, pH 1.2, 37 °C",,remaining conjugate,93.3%
CCCC(CCC)NC(=O)c1ccc(O)c(OC)c1,,rat liver microsomes,"1.0 µM, 60 min, pH 7.4",,remaining parent compound,55.7%
CCCC1OC2CC3C4CCC5=CC(=O)C=CC5(C)C4C(O)CC3(C)C2(C(=O)COC(=O)C(C)N)O1 (stereo not drawn),,rat plasma diluted 5.7-fold,"200 µg/mL, 12 h, 37 °C, 2% DMSO",,remaining conjugate,< 6%
CNC(=O)c1ccc(N2CCN(Cc3ccc4nc(C)c(=O)[nH]c4c3F)CC2)c([18F])n1,,human liver microsomes,90 min,,remaining intact tracer,> 95%
CSCCC(NC(C)=O)C(=O)O.[Ru+2].c1ccc(-c2cccc(-c3ccccn3)n2)nc1.c1ccc(-c2ccccn2)nc1,,water,"24 h, 37 °C",,remaining compound,100%
C=CC(=O)Nc1cc(Nc2nccc(-c3cn(C)c4ccccc34)n2)c(O)nc1N(C)CCN(C)C,LC-MS,human liver microsomes,"3 µM, 60 min, together with: quercetin 20 µM",reference: no inhibitor,remaining parent compound,31%
N[C@@H](CO)C(=O)N1CCC[C@H]1C(=O)NCC(=O)NCC(=O)O,ESI-MS,"1-propanol, 0.5% acetic acid","5 µM, 90 min, 70 °C, diketopiperazine formation",,remaining peptide,58%
C=CC(=O)Nc1cc(Nc2nccc(-c3cn(C)c4ccccc34)n2)c(OCC(F)(F)F)nc1NC,LC-MS,human liver microsomes,"3 µM, 60 min, together with: ticlopidine 24 µM",reference: no inhibitor,remaining parent compound,62%
NC12CNCCNCC(NCc3ccc(CNC(=O)CCCC(=O)NCc4ccc(-c5nncnn5)cc4)cc3)(CNCCNC1)CNCCNC2.[64Cu+2],,PBS,"2 h, pH 7.4, 37 °C",,remaining intact compound,94.7 ± 0.6%
C=CC(=O)Nc1cc(Nc2nccc(-c3cn(C)c4ccccc34)n2)c(OCC(F)(F)F)nc1N(C)CCN(C)C,LC-MS,human liver microsomes,"3 µM, 60 min, together with: quercetin 20 µM",reference: no inhibitor,remaining parent compound,92%
CC(C)C[C@H](NC(=O)[C@@H]1CCCN1C(=O)[C@H](CCCCNC(=O)CN1CCN(CC(=O)O)CCN(CC(=O)O)CCN(CC(=O)O)CC1)NC(=O)CC[C@@H]1NC(=O)[C@@H](Cc2ccccc2)NC(=O)[C@H](CC(=O)O)NC(=O)CNC(=O)[C@H](CCCNC(=N)N)NC1=O)C(=O)NCC(=O)N[C@H](C(=O)N[C@@H](CCCNC(=N)N)C(=O)N[C@@H](Cc1ccc(O)cc1)C(=O)O)C(C)C [copper-64 labelled],radio-HPLC,rat serum,"time not given, 37 °C, together with: ilomastat 0.73 mM",,remaining intact peptide,94%
NC(=O)CNC(=O)[C@@H]1CCCN1C(=O)[C@@H]1CCCN1C(=O)[C@@H]1C[C@@H](O)CN1C(=O)[C@@H]1C[C@@H](O)CN1C(=O)CNC(=O)CNC(=O)[C@@H]1CCCN1C(=O)[C@@H]1C[C@@H](O)CN1C(=O)[C@@H]1C[C@@H](O)CN1C(=O)CNC(=O)[C@@H]1CCCN1C(=O)[C@@H]1CCCN1C(=O)[C@@H]1C[C@@H](O)CN1C(=O)CNC(=O)[C@@H]1C[C@@H](O)CN1C(=O)CNC(=O)[C@@H]1C[C@@H](O)CN1C(=O)[C@@H]1CCCN1C(=O)[C@@H]1C[C@@H](O)CN1C(=O)[C@@H]1CCCN1C(=O)CNC(=O)[C@@H]1CCCN1C(=O)CNC(=O)[C@@H]1C[C@@H](O)CN1C(=O)CNC(=O)[C@@H]1CCCN1,RP-HPLC,25% mouse serum in PBS,"50 µM, 24 h, 37 °C",reference: zero time point,remaining intact peptide,76.9%
NCCCC[C@H](N)C(=O)N1CCC[C@H]1C(=O)NCC(=O)NCC(=O)O,"diketopiperazine formation, ESI-MS",1-propanol,"5 µM, 90 min, 70 °C, 0.5% acetic acid",reference: initial signal,remaining peptide,39%
[11CH3]Oc1ccc(Cc2cn[nH]c2)nc1-c1cccc([N+](=O)[O-])c1,,human plasma in vitro,"30 min, room temperature",,remaining parent,96 ± 0.4%
CC[C@H](C)[C@H](NC(=O)CNC(=O)CNC(=O)c1ccc2c(c1)C(=O)OC21c2ccc(O)cc2Oc2cc(O)ccc21)C(=O)N[C@@H](Cc1ccc(O)cc1)C(=O)N[C@@H](C)C(=O)N(C)[C@@H](C)C(=O)N1CCC[C@H]1C(=O)N(C)[C@@H](Cc1ccccc1)C(=O)N[C@@H](CCCCN)C(=O)N[C@@H](CCCCN)C(=O)N[C@@H](CCCCN)C(=O)N[C@@H](C)C(N)=O,CE-LIF,Baf/BCR-ABL cytosolic lysate,"1 µM, 60 min, 37 °C",,remaining peptide,22 ± 8%
O=C([O-])CN1CCN(CC(=O)[O-])CCN(CC(=O)NCCc2ccc3c(c2)C2C=CCC2C(c2cc4c(cc2Br)OCO4)N3)CCN(CC(=O)[O-])CC1.[111In+3] (stereo not drawn),,mouse plasma,"up to 4 days, 37 °C, In(III) complex",,remaining intact compound,> 90%
COc1cc(NC(C)=O)c2c(c1O)-c1c(OC)c(OC)cc3c1C(C2)N(C)CC3 (stereo not drawn),,rat liver homogenate,"100 µg/mL, time not given, three freeze-thaw cycles",,remaining compound,103 ± 1.5%

# Excerpt of the above:
Structure (SMILES),test,system,setting,how to read,measurement,value
N[C@@H](CO)C(=O)N1CCC[C@H]1C(=O)NCC(=O)NCC(=O)O,ESI-MS,"1-propanol, 0.5% acetic acid","5 µM, 90 min, 70 °C, diketopiperazine formation",,remaining peptide,58%
NCCCC[C@H](N)C(=O)N1CCC[C@H]1C(=O)NCC(=O)NCC(=O)O,"diketopiperazine formation, ESI-MS",1-propanol,"5 µM, 90 min, 70 °C, 0.5% acetic acid",reference: initial signal,remaining peptide,39%
CC(=O)N[C@H](C(=O)N[C@H](C(=O)N[C@@H](CCCNC(=N)N)C(=O)N[C@@H](CC(N)=O)C(=O)N[C@@H](CC(=O)O)C(=O)N[C@H](C(=O)N1CCC[C@@H]1C(=O)N1CCC[C@H]1C(=O)N[C@@H](CC(=O)O)C(=O)N[C@@H](CO)C(=O)N[C@@H](CC(C)C)C(=O)N[C@@H](CC(C)C)C(=O)N[C@H](C(=O)N[C@@H](Cc1ccccc1)C(N)=O)C(C)C)C(C)C)[C@@H](C)O)C(C)C,mass spectrometry,culture medium with HEK293T cells,"24 h, 10% FBS",reference: time zero,remaining peptide,~50%
